Published values gathered from unrelated publications.
Numbered parts are unrelated; each lists some results of a single study. Changes are numbered by the printed parent chain.
UniProt O24408, sequence (whole entry, looked up): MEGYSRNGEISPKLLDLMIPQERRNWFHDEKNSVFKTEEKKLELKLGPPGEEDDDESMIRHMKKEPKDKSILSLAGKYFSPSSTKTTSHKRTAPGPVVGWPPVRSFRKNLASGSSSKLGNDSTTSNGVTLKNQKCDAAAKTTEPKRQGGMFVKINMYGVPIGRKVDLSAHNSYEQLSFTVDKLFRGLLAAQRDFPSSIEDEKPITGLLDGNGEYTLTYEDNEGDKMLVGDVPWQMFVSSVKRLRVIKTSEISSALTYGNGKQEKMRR
UniProt Q94JM3, sequence (whole entry, looked up): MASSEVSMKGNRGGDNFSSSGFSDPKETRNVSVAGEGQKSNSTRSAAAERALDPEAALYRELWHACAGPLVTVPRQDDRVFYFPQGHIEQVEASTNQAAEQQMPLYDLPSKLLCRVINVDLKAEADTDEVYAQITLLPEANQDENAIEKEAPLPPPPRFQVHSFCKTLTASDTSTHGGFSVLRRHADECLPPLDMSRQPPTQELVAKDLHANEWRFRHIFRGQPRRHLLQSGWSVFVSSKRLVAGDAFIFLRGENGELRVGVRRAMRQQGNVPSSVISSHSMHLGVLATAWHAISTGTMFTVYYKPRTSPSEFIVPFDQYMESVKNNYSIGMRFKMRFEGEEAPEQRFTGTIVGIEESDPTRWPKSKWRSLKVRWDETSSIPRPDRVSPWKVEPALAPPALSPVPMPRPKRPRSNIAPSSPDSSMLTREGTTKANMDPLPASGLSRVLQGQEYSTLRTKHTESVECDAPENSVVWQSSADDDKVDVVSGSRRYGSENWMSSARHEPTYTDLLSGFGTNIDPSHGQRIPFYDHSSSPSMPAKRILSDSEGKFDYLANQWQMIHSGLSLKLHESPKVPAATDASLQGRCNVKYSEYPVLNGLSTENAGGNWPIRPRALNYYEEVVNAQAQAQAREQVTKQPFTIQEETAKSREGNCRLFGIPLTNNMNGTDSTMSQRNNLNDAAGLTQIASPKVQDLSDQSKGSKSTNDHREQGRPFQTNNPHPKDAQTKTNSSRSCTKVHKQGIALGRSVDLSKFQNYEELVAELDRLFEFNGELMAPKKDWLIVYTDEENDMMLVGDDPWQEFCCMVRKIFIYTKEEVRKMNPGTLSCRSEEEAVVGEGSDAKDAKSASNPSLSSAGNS
UniProt Q9ZPY6, sequence (whole entry, looked up): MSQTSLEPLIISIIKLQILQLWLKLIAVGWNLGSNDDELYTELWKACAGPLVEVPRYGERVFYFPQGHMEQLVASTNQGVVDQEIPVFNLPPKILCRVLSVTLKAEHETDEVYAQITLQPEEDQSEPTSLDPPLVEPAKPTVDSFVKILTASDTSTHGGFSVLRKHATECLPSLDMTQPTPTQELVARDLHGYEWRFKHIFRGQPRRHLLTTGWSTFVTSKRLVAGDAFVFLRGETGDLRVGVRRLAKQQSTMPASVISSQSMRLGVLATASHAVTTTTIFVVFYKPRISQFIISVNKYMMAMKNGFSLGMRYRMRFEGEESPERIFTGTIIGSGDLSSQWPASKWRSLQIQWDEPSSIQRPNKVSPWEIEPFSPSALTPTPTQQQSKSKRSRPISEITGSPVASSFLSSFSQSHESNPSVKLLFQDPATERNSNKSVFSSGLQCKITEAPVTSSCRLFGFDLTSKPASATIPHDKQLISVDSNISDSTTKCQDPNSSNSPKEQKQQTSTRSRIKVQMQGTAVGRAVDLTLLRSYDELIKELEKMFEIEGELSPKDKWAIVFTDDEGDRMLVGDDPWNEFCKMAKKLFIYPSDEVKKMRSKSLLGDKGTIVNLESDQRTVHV
UniProt Q9ZSY8, sequence (whole entry, looked up): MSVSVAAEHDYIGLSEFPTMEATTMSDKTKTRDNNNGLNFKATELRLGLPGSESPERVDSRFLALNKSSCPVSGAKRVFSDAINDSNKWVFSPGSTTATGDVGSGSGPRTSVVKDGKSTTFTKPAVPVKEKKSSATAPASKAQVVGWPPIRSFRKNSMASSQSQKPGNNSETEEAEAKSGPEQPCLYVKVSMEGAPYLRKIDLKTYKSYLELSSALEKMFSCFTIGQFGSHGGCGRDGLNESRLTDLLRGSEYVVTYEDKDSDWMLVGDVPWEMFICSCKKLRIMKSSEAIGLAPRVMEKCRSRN
UniProt Q9C5W9, sequence (whole entry, looked up): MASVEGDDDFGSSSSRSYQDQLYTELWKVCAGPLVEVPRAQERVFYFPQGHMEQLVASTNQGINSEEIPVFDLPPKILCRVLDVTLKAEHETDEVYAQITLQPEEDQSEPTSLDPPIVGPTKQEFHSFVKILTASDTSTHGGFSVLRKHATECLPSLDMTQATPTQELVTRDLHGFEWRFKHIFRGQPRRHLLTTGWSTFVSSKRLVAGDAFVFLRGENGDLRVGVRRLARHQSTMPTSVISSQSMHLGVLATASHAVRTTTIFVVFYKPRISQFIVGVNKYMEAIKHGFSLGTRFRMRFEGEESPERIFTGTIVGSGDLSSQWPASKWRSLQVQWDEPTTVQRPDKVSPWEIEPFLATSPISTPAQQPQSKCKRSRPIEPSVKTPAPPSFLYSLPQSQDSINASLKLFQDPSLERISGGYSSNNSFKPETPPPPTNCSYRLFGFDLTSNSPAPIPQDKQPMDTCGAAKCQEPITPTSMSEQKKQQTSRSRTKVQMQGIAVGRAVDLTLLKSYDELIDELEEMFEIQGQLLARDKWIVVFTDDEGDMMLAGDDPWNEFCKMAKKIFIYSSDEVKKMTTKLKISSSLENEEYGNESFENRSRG
UniProt Q9XFM0, sequence (whole entry, looked up): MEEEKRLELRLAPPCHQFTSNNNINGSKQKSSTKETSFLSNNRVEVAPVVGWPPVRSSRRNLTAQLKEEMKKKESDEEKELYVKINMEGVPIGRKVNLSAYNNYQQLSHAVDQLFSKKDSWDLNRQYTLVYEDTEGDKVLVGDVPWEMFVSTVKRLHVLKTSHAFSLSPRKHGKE
UniProt Q84WU6, sequence (whole entry, looked up): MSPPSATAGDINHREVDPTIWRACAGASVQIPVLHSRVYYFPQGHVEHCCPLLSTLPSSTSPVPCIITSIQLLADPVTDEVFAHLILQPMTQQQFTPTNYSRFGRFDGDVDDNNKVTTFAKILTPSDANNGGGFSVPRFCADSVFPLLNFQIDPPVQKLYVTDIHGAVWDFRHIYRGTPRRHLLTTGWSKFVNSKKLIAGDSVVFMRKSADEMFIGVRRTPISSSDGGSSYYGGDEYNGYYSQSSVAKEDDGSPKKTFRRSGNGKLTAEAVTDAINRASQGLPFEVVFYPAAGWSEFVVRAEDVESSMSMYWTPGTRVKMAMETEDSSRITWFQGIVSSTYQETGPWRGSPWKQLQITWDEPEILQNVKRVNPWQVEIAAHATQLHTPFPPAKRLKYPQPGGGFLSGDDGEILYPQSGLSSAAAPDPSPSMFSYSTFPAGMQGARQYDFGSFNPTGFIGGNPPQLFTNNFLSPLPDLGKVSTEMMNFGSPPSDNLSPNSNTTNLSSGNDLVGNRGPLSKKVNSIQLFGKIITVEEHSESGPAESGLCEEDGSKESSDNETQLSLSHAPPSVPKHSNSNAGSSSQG

Series 1
Target: NFIL3, bZIP domain (human)
Method: DHFR protein complementation
Sample: yeast
Notes: single substitutions, most at no-binding floor
Relative to: wild-type JUN-FOS pair
Direction: higher = stronger binding
Starting sequence: JUN, bZIP domain (human); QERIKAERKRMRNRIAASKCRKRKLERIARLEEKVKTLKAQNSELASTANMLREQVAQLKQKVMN; partner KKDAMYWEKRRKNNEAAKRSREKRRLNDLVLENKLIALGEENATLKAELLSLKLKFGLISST
`A49M` has a binding fitness of -1.29 natural log.
`A49F` has a binding fitness of -1.52 natural log.
For `T48E`, the binding fitness was -1.47 natural log.
`V56R` has a binding fitness of -1.5 natural log.
The binding fitness of `R30L` is reported as -1.45 natural log.
The binding fitness of `A46S` is reported as -1.33 natural log.
With `A40F` the binding fitness was -1.55 natural log.
For `A40P`, the binding fitness was -1.5 natural log.

Series 2
Molecule: B1 (IAA16)
Method: two-hybrid
Direction: higher = firmer interaction
B1: IAA16 (Arabidopsis thaliana, UniProt O24407); chain MINFEATELRLGLPGGNHGGEMAGKNNGKRGFSETVDLKLNLSSTAMDSVSKVDLENMKEKVVKPPAKAQVVGWPPVRSFRKNVMSGQKPTTGDATEGNDKTSGSSGATSSASACATVAYVKVSMDGAPYLRKIDLKLYKTYQDLSNALSKMFSSFTIGNYGPQGMKDFMNESKLIDLLNGSDYVPTYEDKDGDWMLVGDVPWEMFVDSCKRIRIMKGSEAIGLAPRALEKCKNRS
For IAA28 (Arabidopsis thaliana, UniProt Q9XFM0); relative to: out of 4 tests: positive tests read 3.
For ARF2 727-859 (Arabidopsis thaliana, UniProt Q94JM3); relative to: out of 2 tests: positive tests read 0.
For ARF11 500-622 (Arabidopsis thaliana, UniProt Q9ZPY6); relative to: out of 4 tests: positive tests read 0.
For IAA18 (Arabidopsis thaliana, UniProt O24408); relative to: out of 4 tests: positive tests read 2.
ARF17 (Arabidopsis thaliana, UniProt Q84WU6); weak activation fusion; relative to: out of 4 tests — positive tests: 0.
It gave 4 for positive tests (IAA27 (Arabidopsis thaliana, UniProt Q9ZSY8); relative to: out of 4 tests).
ARF18 482-602 (Arabidopsis thaliana, UniProt Q9C5W9); relative to: out of 3 tests — positive tests: 0.

Series 3
Host: mouse
Sample: microsomes or S9
Concentration: 2 µM
Time: 0.5 h
CN(C)C[C@@H]1CN(S(C)(=O)=O)C[C@H]1NC(=O)c1cccn1C has a remaining compound of over 100%.
The remaining compound of Cc1ccc(-c2nn(C(C)(C)C)c(N)c2C#N)cc1 is reported as 20.2%.
With O=c1ccc(Br)cn1Cc1ccccc1Oc1ccccc1 the remaining compound was 0.302%.
For CCOc1cc(CNC(C)(C)C)c(Cl)cc1OC(C)C, the remaining compound was 0.235%.
For O=C1Nc2cc3ccc(OCc4ccccc4)cc3c3cccc1c23, the remaining compound was 31.9%.
The remaining compound of Cc1cnn(CCNC(C)C(=O)Nc2sccc2C(N)=O)c1 (stereo not shown) is reported as 70.1%.
The remaining compound of COCCCNC(=O)C1CCC(CN(Cc2c(Cl)cccc2Cl)S(=O)(=O)c2ccc(Br)cc2)CC1 (stereo not shown) is reported as 0%.
For COc1ccc(Sc2nn(S(C)(=O)=O)c3ccccc23)cc1OC, the remaining compound was 4.18%.
For CC(Cn1cc(Br)cn1)c1nc2c3cnn(C)c3ncn2n1 (stereo not shown), the remaining compound was 0.0889%.
COc1ccc(-c2n[nH]cc2CN(Cc2ccncc2)C2CC(C)(C)NC(C)(C)C2)cc1 has a remaining compound of 86.2%.
For CN(C)C[C@H]1CC[C@H](Nc2ncc3ccc(=O)n(C4CCCCCC4)c3n2)CC1, the remaining compound was 10%.
Cc1cc(=O)n(C2CCNCC2)nc1-c1ccccc1 has a remaining compound of 56.9%.
O=C1NCCNC1Cc1ccc(-c2cccc(F)c2F)cc1 (stereo not shown) has a remaining compound of 46.5%.
With Cn1c(-c2c(N)n(C3CCCC3)c3nc4ccccc4nc23)nc2ccccc21 the remaining compound was over 99%.
For COc1ccc(OC)c(NC(=O)C2C3CC4OC(=O)C2C4C3)c1 (stereo not shown), the remaining compound was 73%.

Mixed results
The viability of CN(C)C(=O)N1CC[C@H](N=C2Nc3cc(F)ccc3N(CC(F)F)c3ccc(Cl)cc32)C1 is reported as 106% (sample C colorectal tumour organoid; 0.1 µM; relative to: DMSO).

Repeated from above (mixed results):
The viability of CN(C)C(=O)N1CC[C@H](N=C2Nc3cc(F)ccc3N(CC(F)F)c3ccc(Cl)cc32)C1 is reported as 106% (sample C colorectal tumour organoid; 0.1 µM; relative to: DMSO).
